# Assay results gathered from unrelated publications.
# Numbered parts are unrelated; each lists some results of a single study.

# Study 1 — method: RNA Bind-n-Seq; molecule type: RNA; matrix: in vitro; concentration: 20 nM; notes: 6-mer, flanks averaged, single round; with: 150 mM KCl; baseline: input library; direction: higher = stronger binding
# Target: TAR DNA-binding protein 43, full length, His tag (TARDBP, Homo sapiens, UniProt Q13148, residues 1-414)
Strand,6-mer enrichment (R)
CAUGUG,0.988
CCUUUG,0.675
GGACUA,0.997

# Study 2 — method: protein-binding microarray; molecule type: double-stranded DNA, one strand shown; matrix: in vitro; concentration: 2540 nM top; notes: 60-bp whole probe; with: salmon DNA 0.4 mg/ml; baseline: random background probes; direction: higher = stronger binding
# Target: Interferon regulatory factor 3, full length, phosphomimetic (IRF3, Homo sapiens, UniProt Q14653, residues 1-427, S386D/S396D/S398D/S402D/T404D/S405D)
# Target sequence (chain): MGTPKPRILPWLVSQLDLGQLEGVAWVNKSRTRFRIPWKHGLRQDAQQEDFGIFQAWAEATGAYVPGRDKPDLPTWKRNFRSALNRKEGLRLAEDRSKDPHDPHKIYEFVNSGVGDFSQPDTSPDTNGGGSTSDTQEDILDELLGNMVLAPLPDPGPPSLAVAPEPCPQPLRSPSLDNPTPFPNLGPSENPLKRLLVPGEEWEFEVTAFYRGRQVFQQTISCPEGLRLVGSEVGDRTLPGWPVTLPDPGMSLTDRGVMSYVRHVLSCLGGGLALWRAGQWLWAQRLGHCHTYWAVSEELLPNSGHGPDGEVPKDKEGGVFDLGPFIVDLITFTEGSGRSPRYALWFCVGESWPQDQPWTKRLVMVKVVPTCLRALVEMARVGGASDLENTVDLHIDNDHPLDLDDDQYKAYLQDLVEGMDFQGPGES
Strand,fitted relative affinity
GCCTAGCACGGCAAAAACATGAACAGACAGTGCTAGGTCTTGATTCGCTTGACGCTGCTG,-0.53 z-score
GCCTAGCACGACGGTATCGACTTTCTGGACGTGCTAGTCTTGATTCGCTTGACGCTGCTG,1.22 z-score
GCCTAGCACTCAGAAATTCCTCTGAAACTGTGCTAGGTCTTGATTCGCTTGACGCTGCTG,0.0408 z-score

# Study 3 — method: aptamer microarray, sandwich; molecule type: DNA with 2'F-ANA; matrix: in vitro; concentration: 200 nM; with: Cy3 exosite-II aptamer, 400 nM; direction: higher = stronger binding
# Target: Prothrombin, mature alpha-thrombin (F2, Homo sapiens, UniProt P00734)
# Notes: whole 15-mer aptamer, many near background
Strand,mean fluorescence intensity
GGTTGGTGTGGTTGG (2'F-ANA at 2 5 9 10 13 14 15),49.2 a.u.
GGTTGGTGTGGTTGG (2'F-ANA at 2 6 12 13 15),508 a.u.
GGTTGGTGTGGTTGG (2'F-ANA at 1 2 4 6 8 9 11 14 15),163 a.u.

# Single results of other studies
Substance,target,assay,test system,conditions,how to read,measurement,value
"PhoQ, residues 284 288 289 292 302 303 TSTLRA","PhoP, residues 12 14 15 18 19 LWHVM (Escherichia coli, UniProt P23836)","Sort-seq, measured: YFP reporter",E. coli,"PhoQ-PhoP variant library, with: 10 µM Mg2+","baseline: high Mg2+ state, higher = stronger signaling",fold induction,3.34
